Experimental data gathered from unrelated publications.
Parts stem from different laboratories: compare values within a part only. Substitutions count along the parent as printed.
UniProt P93022, sequence (whole entry, looked up): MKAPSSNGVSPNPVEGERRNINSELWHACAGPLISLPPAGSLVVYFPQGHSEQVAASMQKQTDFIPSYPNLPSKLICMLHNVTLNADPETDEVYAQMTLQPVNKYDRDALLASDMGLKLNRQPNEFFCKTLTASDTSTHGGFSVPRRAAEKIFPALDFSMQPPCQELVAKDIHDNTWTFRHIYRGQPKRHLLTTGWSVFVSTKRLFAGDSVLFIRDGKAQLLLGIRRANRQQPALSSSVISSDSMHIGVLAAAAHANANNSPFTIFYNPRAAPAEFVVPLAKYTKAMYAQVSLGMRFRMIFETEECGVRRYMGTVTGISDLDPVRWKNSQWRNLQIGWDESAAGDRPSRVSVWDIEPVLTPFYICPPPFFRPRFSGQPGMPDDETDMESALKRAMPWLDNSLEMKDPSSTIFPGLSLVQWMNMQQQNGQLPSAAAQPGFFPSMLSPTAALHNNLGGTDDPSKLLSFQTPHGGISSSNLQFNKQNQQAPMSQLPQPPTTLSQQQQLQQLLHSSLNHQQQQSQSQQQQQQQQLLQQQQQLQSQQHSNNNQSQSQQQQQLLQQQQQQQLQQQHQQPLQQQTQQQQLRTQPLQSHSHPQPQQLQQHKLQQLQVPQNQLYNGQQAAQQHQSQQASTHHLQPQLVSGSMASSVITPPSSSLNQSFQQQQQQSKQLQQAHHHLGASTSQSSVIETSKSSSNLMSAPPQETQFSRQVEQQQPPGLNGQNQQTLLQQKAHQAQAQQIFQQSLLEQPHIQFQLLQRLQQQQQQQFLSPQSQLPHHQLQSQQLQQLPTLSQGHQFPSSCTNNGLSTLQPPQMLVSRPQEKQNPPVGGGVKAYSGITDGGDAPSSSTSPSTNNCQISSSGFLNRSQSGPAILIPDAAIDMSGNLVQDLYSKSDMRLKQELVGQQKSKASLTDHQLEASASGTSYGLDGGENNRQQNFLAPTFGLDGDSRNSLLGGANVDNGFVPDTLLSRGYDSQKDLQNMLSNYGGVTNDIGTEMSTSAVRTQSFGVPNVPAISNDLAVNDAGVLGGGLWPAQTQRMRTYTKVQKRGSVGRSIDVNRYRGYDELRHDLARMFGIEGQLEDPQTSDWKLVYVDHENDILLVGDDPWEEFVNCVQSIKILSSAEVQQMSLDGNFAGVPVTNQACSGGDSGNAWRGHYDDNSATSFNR
UniProt Q9FGV1, sequence (whole entry, looked up): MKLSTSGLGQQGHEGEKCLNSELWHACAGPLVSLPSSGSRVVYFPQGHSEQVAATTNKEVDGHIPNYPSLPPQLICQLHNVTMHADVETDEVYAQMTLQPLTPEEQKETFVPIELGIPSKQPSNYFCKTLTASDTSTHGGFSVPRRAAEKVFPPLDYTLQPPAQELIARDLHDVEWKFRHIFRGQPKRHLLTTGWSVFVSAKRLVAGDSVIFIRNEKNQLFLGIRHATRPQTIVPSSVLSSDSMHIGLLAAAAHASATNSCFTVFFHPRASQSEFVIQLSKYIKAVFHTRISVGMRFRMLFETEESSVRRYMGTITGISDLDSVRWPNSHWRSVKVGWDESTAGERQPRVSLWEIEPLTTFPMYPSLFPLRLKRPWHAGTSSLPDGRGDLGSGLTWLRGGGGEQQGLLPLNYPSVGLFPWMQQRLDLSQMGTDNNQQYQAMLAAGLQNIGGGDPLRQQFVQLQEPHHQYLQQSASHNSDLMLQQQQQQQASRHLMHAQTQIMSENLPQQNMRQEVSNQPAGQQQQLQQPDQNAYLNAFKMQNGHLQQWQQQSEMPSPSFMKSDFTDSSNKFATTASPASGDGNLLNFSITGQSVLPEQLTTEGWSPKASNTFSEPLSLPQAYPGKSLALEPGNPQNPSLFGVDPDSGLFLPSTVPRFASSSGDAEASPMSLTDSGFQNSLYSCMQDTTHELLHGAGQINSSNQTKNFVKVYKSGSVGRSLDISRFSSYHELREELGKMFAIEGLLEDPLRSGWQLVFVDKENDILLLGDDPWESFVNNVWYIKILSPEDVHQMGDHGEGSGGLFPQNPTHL
UniProt O23661, sequence (whole entry, looked up): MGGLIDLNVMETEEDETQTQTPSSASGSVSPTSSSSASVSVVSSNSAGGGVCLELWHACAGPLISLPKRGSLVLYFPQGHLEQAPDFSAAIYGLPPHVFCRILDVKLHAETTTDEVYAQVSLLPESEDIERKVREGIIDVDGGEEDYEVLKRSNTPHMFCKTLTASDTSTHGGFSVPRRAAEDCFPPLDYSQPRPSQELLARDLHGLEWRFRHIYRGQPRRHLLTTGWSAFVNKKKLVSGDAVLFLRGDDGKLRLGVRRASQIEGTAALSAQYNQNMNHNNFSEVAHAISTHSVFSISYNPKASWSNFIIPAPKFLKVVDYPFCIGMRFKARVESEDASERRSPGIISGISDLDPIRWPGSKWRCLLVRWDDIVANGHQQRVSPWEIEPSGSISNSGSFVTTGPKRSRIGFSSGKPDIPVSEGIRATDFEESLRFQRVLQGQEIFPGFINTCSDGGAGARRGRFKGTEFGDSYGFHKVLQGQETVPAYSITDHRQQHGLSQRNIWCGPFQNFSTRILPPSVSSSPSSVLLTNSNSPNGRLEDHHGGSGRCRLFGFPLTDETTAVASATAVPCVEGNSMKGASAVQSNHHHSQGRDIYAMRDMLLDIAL
UniProt Q9C5X0, sequence (whole entry, looked up): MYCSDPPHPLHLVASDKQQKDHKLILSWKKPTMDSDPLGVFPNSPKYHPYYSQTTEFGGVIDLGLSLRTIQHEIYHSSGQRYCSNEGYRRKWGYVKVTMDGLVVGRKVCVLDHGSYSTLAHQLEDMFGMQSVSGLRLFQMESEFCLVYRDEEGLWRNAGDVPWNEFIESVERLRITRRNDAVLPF
UniProt Q9ZPY6, sequence (whole entry, looked up): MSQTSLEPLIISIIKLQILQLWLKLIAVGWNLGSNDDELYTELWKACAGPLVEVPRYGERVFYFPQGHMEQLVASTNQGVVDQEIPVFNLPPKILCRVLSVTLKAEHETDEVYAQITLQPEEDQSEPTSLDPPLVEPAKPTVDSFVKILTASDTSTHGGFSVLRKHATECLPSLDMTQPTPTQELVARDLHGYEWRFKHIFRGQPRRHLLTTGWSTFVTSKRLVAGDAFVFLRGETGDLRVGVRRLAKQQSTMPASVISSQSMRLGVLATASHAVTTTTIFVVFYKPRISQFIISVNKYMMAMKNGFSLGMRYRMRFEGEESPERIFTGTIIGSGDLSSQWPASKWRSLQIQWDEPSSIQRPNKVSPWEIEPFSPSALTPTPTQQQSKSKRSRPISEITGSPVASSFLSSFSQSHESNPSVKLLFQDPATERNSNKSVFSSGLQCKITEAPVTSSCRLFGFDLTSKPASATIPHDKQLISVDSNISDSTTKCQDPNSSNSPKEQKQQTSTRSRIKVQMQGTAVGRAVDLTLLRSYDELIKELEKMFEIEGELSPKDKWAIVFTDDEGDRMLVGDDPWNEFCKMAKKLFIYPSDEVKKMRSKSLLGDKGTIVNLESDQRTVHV
UniProt Q9ZTX8, sequence (whole entry, looked up): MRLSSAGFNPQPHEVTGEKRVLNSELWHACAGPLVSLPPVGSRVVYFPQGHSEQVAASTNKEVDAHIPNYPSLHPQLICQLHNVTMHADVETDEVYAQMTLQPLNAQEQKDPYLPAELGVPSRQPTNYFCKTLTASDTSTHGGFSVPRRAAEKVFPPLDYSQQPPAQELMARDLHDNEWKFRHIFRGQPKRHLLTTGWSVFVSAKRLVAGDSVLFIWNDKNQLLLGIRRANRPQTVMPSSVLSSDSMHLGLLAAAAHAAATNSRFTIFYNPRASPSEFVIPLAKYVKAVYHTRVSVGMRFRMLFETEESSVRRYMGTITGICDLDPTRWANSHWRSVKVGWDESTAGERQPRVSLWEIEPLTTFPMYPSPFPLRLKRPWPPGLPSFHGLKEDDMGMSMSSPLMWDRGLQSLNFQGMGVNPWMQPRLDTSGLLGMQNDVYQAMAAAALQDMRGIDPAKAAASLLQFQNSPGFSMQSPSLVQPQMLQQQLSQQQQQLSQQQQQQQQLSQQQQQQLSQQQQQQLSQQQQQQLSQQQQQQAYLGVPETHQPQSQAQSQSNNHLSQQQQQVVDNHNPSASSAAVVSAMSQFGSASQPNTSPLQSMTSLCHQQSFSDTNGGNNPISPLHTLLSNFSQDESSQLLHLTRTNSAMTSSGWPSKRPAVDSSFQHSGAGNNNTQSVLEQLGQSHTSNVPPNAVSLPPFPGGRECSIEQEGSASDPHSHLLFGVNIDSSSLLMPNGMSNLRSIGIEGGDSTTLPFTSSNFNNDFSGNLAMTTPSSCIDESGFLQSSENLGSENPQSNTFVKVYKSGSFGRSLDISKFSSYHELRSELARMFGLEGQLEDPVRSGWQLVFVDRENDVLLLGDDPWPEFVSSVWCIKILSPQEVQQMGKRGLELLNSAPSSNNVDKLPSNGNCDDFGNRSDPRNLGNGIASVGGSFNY
UniProt Q9FX25, sequence (whole entry, looked up): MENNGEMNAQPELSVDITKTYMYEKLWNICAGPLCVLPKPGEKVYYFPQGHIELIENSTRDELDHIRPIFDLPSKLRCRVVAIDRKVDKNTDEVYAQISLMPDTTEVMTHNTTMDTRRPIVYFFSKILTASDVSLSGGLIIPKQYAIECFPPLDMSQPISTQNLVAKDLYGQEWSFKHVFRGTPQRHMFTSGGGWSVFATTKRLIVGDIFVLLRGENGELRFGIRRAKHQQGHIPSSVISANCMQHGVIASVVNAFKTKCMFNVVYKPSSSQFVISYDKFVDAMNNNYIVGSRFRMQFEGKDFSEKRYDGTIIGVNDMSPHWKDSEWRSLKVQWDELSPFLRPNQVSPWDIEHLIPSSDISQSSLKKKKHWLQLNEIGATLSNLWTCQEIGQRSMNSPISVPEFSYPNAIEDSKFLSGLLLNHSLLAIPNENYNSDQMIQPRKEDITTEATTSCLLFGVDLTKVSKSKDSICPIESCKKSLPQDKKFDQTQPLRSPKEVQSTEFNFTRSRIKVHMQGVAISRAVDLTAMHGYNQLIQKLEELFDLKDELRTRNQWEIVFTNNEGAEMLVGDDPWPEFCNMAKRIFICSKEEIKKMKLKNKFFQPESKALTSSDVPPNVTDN

Series 1
Target: TAR DNA-binding protein 43, full length, His tag (TARDBP, Homo sapiens, UniProt Q13148, residues 1-414)
Technique: RNA Bind-n-Seq
Molecule type: RNA
Medium: in vitro
Tested at: 20 nM
Notes: 6-mer, flanks averaged, single round
Added: 150 mM KCl
Reference: input library
Reading: higher = stronger binding
Oligonucleotide | 6-mer enrichment (R)
GAGGCG | 3.81
CAACGU | 0.641
UAUUAU | 0.635
GCCAAC | 0.773
UGAGCU | 0.767
UUAGCG | 0.855
CAAGAC | 0.654
GGUAAA | 1.03

Series 2
Molecule: B1 (IAA31)
Technique: two-hybrid
Reading: higher = firmer interaction
B1: IAA31 (Arabidopsis thaliana, UniProt Q8H174); chain MEVSNSCSSFSSSSVDSTKPSPSESSVNLSLSLTFPSTSPQREARQDWPPIKSRLRDTLKGRRLLRRGDDTSLFVKVYMEGVPIGRKLDLCVFSGYESLLENLSHMFDTSIICGNRDRKHHVLTYEDKDGDWMMVGDIPWDMFLETVRRLKITRPERY
partner | setting | how to read | positive tests
ARF11 500-622 (Arabidopsis thaliana, UniProt Q9ZPY6) | – | reference: out of 2 tests | 0
ARF7 1030-1164 (Arabidopsis thaliana, UniProt P93022) | – | reference: out of 2 tests | 1
ARF6 790-935 (Arabidopsis thaliana, UniProt Q9ZTX8) | – | reference: out of 2 tests | 2
ETT (Arabidopsis thaliana, UniProt O23661) | – | reference: out of 2 tests | 0
ARF13 (Arabidopsis thaliana, UniProt Q9FX25) | – | reference: out of 2 tests | 0
ARF8 699-811 (Arabidopsis thaliana, UniProt Q9FGV1) | – | reference: out of 2 tests | 2
ARF9 519-638 (Arabidopsis thaliana, UniProt Q9XED8) | weak activation fusion | reference: out of 2 tests | 0
IAA34 (Arabidopsis thaliana, UniProt Q9C5X0) | – | reference: out of 4 tests | 4

Further values, each from its own experiment
P1: viral docking peptide; KKVKRRLFETREL; partner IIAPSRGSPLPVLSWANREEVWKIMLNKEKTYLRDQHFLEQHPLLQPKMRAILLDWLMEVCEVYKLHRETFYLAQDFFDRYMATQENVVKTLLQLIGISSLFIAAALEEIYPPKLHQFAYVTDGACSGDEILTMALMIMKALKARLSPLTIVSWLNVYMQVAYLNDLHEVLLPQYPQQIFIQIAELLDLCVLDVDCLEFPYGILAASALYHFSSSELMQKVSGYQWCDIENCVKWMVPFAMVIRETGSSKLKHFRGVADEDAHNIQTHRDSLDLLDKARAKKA
Molecule | target or system | assay | test system | setting | how to read | quantity | value
P1 F8L | CCNE1, cyclin fold, Cln2 fusion (human) | yeast growth competition, sequencing | yeast | strong parent motif | reference: not given, higher = stronger binding | normalised enrichment score | 0.375
COP(=S)(OC)Oc1ccc(Sc2ccc(OP(=S)(OC)OC)cc2)cc1 | Plasmodium berghei | inhibitor | Huh-7, GFP-expressing, liver stage | 10 µM, 24 h | reference: untreated control | infection rate | 93.8%

For quick reference, copied from above (series 2):
partner | setting | how to read | positive tests
ARF13 (Arabidopsis thaliana, UniProt Q9FX25) | – | reference: out of 2 tests | 0
ARF8 699-811 (Arabidopsis thaliana, UniProt Q9FGV1) | – | reference: out of 2 tests | 2
